Experimental data of several laboratories.
Parts stem from different laboratories: compare values within a part only.

Set 1
Target: Sal-like protein 4, full length isoform A (SALL4, Homo sapiens, UniProt Q9UJQ4, residues 1-1053)
UniProt Q9UJQ4, sequence (whole entry, looked up): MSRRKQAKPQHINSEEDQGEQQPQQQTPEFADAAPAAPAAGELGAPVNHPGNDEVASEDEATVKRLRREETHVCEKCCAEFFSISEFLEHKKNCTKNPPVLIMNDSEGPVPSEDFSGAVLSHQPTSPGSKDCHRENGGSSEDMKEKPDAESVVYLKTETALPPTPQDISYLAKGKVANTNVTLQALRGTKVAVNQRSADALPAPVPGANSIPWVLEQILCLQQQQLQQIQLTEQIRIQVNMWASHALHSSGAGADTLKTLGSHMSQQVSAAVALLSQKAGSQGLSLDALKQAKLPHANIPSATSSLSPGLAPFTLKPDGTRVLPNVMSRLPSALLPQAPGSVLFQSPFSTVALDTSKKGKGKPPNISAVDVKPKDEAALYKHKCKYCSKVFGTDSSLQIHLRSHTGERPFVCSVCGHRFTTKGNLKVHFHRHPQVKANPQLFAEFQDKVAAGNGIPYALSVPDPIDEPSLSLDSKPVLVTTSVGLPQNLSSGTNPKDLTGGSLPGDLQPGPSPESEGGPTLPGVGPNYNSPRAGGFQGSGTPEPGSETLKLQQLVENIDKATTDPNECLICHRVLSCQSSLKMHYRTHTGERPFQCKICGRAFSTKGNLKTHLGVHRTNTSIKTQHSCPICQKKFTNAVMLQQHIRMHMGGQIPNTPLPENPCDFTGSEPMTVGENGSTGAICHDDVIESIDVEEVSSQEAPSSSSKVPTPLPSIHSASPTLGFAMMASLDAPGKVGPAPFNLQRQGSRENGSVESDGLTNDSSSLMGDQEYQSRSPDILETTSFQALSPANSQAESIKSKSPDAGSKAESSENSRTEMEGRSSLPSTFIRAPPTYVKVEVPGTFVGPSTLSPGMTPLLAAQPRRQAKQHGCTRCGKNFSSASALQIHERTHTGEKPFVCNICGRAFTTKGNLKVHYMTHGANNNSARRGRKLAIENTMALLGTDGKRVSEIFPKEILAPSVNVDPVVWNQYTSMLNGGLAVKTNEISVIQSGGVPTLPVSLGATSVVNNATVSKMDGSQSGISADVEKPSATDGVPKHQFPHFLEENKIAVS
Method: universal PBM
Form: double-stranded DNA, one strand shown
Sample: in vitro
Tested at: 600 nM
Notes: 8-mer, flanks averaged, mean of replicates
Direction: higher = stronger binding
Quantity: E-score
Strand = GCCCGGAA; result = -0.287
Strand = CTAGCTGA; result = -0.087
Strand = CACCTTCG; result = -0.116
Strand = AACGTAGC; result = -0.04
Strand = AAAAGGAG; result = 0.0399
Strand = CAGTAATA; result = 0.366
Strand = ATGAGGTA; result = 0.173
Strand = GCTGCTAC; result = -0.162

Set 2
Target: Hepatocyte nuclear factor 3-alpha (Foxa1, Mus musculus, UniProt P35582, residues 1-468, full length assumed)
Method: EMSA with sequencing
Form: double-stranded DNA, one strand shown
Sample: in vitro
Tested at: 10 and 20 nM
Notes: whole designed probe, mean of two concentrations, ends assumed
Reference: negative control set to 0
Direction: higher = stronger binding
Quantity: normalised bound fraction
Shared flanks, not repeated: GTGAGCGGTGCCCATTGATGGGGAAC … TTTCACTGGGATCGTGGGGAC
Residues (chain): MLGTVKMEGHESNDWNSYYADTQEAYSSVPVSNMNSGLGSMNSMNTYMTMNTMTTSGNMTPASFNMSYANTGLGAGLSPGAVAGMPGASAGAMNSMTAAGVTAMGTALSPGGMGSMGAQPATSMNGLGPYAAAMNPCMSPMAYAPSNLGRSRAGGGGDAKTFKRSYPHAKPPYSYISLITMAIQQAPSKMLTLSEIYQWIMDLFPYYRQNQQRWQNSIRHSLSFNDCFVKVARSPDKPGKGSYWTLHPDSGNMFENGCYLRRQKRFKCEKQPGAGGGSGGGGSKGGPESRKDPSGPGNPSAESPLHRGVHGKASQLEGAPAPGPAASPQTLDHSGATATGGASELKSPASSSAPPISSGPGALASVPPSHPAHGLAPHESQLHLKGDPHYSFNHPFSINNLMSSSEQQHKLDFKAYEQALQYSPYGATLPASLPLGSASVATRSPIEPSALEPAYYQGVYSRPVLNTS
Strand = CTGGCCTATCTCCCACCCCTAATGTCCCACACCAGTTCCTGATCTCCTGCCCCACCCCTCCTGCACCCTGCCCCTTCTCAGGTGACTCACTGTGTCAACATCCTTGAAGGAATGATTTCTGGTTCATGGCCCCAGAGCTGGAGCTTTGGAAGGATAATGGGAAAAGCAGCCAGGGTCCCTGCCCTCAAGAGAC; result = 0.253 ratio
Strand = GTGTCAAATAGTGATAAGATTGACAACATCTGGAGAAAATATTTAGGAATATGACATTTATATTTTTAACAAAAGTGCAATGCTATTGCAATGTAAACAGCAAGCAGTTGGGAAAATGGCCCTGAGTATTGCTATTATTTCTCTTACTTAAAATAAAATGTGAACTTTTATGGTGAAGTGTTTTCATTGCACA; result = 0.288 ratio
Strand = ATCTTCCCCCTCTTCCTTGCCCCACCAGCTCACCTACGGGGGTTATTTGCACAAAGGAAAATAAATAAAGCCGGCATTCGTTAACGCAGTTCTGGCGCAAACTGCTGTTTGCTCTGCATGAATCATGGTCCTTACGCGACGCCAGGCTCCGGGAGAGCAAAGCACCGTGTCAGGCGCATGATCCGGGGTGGCC; result = 0.386 ratio
Strand = GTGTCAAATAGTGATAAGATTGACAACATCTGGAGAAAATATTTAGGAATATGACATTTATATTTTTAACAAAAGTGCAATGCTATTGCAATGTAATCTGCAAGCAGTTGGGAAAATGGCCCTGAGTATTGCTATTATTTCTCTTACTTAAAATAAAATGTGAACTTTTATGGTGAAGTGTTTTCATTGCACA; result = -0.0437 ratio
Strand = AAATGACATTTGGTGGCATTCAAGATGTAAATTACACTCAGCATACTGAACGTCCGTGCAACAGATTGCATTAGGTTCAAGCCTCAGGCTCTTAGATTGCTGAGGTTCACCTAACGTAGTTTAGCCCCATAAAGATTCCTGAAAGAGGCTCTTTGAGCTAAAGCAACTCCATAGAAAGTCATGCATGTGCAGC; result = -0.047 ratio
Strand = TAATTTGGCTTTCCTTGTAAAACTCTTTTTAATTTTTAATTTTAAATGCCATGTAATACACTTGTTCTCTCTTTGAACTGAGATTTATCAATGTAAACAAGAAGAACAATTCAATTCATTAAATTAAAGAGGATATTTGTTCCAGGCTGAAAAATTAAGTGGTTTACTACACATAAATATAAAATTTCCTTCA; result = 0.393 ratio
Strand = ACACAGAAACCCTTTGGTAACATGAGCTGTGTTTCCTTGTTAAATTGACCCTGCTGTCTGACACCCTCTGTTGCTACTGTTACATCACAGCTAGGTCATCTTCCAGATTCCTTTACCAACTATGTGAGAATCTACTAAAAGCATTCTCTAATAATACAGTCAGCCCTGGGAAAGACATCTGAGCTTTAATTAA; result = -0.0498 ratio
Strand = CAGGTTCTCCAGACTAACTAGACATTGGCAGGGTTGACTGATATTCTGCCAGCAAATCCCTCTTCTGCTCTAGTCAGCCAGGGCTGGTGACTGTGTAATCTAGACCCCTCTCACTCCTCCCACAGCTGTGCTGCAGATGACACACACACTTCTCTTAACAATTTTTATTGAAGAAAAAATAGGCTGCTTTGCA; result = -0.0502 ratio

Set 3
Target: Myc proto-oncogene protein, bHLH-zipper, MAX partner unstated (MYC, Homo sapiens, UniProt P01106, residues 368-449)
UniProt P01106, sequence (368-449, looked up): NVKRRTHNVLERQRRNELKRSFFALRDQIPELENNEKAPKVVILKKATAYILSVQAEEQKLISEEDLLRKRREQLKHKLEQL
Method: protein-binding microarray
Form: double-stranded DNA, one strand shown
Sample: in vitro
Tested at: not given
Notes: k-mer, scored over probes, only values ≥0.25
Direction: higher = stronger binding
Quantity: E-score
Strand = ACCATGCC; result = 0.407
Strand = ATCGTGCA; result = 0.265
Strand = AGTACACG; result = 0.358
Strand = GCATGACC; result = 0.342
Strand = CGCGTGCA; result = 0.457
Strand = CGGGCACA; result = 0.305
Strand = CGCCATGC; result = 0.435
Strand = GGTGTGCA; result = 0.306

Further values, each from its own experiment
Molecule = FMFDSDEAM; target = HLA class I histocompatibility antigen, C alpha chain, allele C*04:01 (Homo sapiens, UniProt P10321); read-out = peptide-MHC binding; form = peptide; tested at = concentration not given; quantity = binding; result = inactive

For quick reference, copied from above (set 3):
Strand = GGTGTGCA; result = 0.306
Strand = CGGGCACA; result = 0.305
Strand = ATCGTGCA; result = 0.265
Strand = CGCGTGCA; result = 0.457
